Assay results from different studies.
Lines come from different studies, so protocols differ. Several values in a cell are separate wells, animals, samples, runs or records. ± marks the error that the study gave.
Chain of UniProt O15146 (whole entry, looked up): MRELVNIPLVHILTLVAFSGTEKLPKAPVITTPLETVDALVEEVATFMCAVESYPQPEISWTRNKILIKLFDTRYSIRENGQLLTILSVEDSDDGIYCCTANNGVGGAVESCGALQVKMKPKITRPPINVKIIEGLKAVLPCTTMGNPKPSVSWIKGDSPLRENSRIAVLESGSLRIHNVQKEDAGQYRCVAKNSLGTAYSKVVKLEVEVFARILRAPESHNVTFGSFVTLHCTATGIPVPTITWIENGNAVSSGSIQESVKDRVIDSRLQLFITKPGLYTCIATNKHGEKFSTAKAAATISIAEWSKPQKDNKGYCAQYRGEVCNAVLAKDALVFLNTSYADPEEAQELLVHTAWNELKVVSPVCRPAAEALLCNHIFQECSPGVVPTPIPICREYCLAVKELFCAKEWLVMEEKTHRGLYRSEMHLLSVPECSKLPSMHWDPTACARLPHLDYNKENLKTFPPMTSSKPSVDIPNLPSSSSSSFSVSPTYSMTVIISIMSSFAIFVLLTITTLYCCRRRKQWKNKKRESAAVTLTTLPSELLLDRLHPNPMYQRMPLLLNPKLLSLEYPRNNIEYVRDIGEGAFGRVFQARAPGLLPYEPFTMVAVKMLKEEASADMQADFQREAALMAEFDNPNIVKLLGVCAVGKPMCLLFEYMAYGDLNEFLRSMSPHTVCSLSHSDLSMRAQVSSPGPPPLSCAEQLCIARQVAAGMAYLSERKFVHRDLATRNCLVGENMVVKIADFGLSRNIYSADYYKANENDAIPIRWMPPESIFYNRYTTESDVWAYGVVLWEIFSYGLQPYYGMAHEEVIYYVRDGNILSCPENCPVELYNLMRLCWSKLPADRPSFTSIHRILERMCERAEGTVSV

| SMILES | tested on | test | system | setting | how to read | measurement | result |
| --- | --- | --- | --- | --- | --- | --- | --- |
| C=C[C@]1(C)C[C@@H](OC(=O)CSc2ccc(NC(=O)c3ccco3)cc2)[C@]2(C)[C@H](C)CC[C@]3(CCC(=O)[C@H]32)[C@@H](C)[C@@H]1O |  |  | chicken, Mycoplasmoides gallisepticum infected, plasma | intramuscular, 80 mg/kg |  | Tmax | 21.4 min and 21.6 min |
| Cc1nc(N)nc2c1C(=O)N[C@@H](c1ccc(F)cc1-c1cccc(O[11CH3])n1)C2 |  | ex vivo biodistribution | mice, U87 subcutaneous xenograft, blood | 60 min post-injection, baseline, vehicle pre-treatment |  | tracer uptake | 3.9 ± 0.6 %ID |
| C=CC(=O)Nc1cccc(Cn2ncc3cnc(Nc4cnn(CCOC)c4)nc32)c1 | BMPR2 human | binding, KINOMEscan |  | 100 nM | lower = stronger binding | percent of control | 90% |
| C/C(N)=N/C(=N\S(=O)(=O)c1ccc(C(F)(F)F)cc1)N1C[C@H](c2ccccc2)C(c2ccc(Cl)cc2)=N1 |  |  | Sprague-Dawley rat, male, plasma | oral, 3 mg/kg |  | AUC(0-inf) | 2680 ng·h/mL |
| CCCCN1C(=O)c2cccc3c(NCCN4CCOCC4)ccc(c23)C1=O |  |  | CHCl3 |  |  | molar extinction coefficient | 6730 M⁻¹ cm⁻¹ |
| CC[C@H](C)[C@@H]1NC(=O)[C@H](Cc2ccc(O)cc2)NC(=O)CCCSC[C@@H](C(=O)N(CC(=O)N[C@@H](CC(C)C)C(=O)NCC(N)=O)Cc2ccc(F)cc2)NC(=O)[C@H](CC(N)=O)NC(=O)[C@H](CCC(N)=O)NC1=O |  |  | healthy human, plasma | intranasal, 400 µg every 3 h, after first dose |  | Cmax | 0.229 ng/mL |
| CC(C)C[C@H](NC(=O)[C@@H](CCCCNC(=O)[C@@H](Cc1ccccc1)NC(=O)CCCCCCCNC(=O)CN1CCN(CC(=O)O)CCN(CC(=O)O)CCN(CC(=O)O)CC1)NC(=O)[C@H](Cc1ccc(O)cc1)NC(=O)[C@H](CO)NC(=O)[C@H](Cc1c[nH]c2ccccc12)NC(=O)[C@H](Cc1c[nH]cn1)NC(=O)[C@@H]1CCC(=O)N1)C(=O)N[C@@H](CCCNC(=N)N)C(=O)N1CCC[C@H]1C(=O)NCC(N)=O [indium-111 labelled] |  |  | male athymic nude mice, DU-145 prostate cancer xenograft, intestines | intravenous, 0.037 MBq, 0.5 h |  | tissue uptake | 1.09 ± 0.19 %ID |
| N=C(N)NCCC[C@@H]1NC(=O)[C@H](CO)NC(=O)[C@@H](NC(=O)[C@H](CO)NC(=O)[C@H](CO)NC(=O)[C@H](Cc2c[nH]c3ccccc23)NC(=O)CNC(=O)[C@H](CO)NC(=O)[C@@H](N)Cc2c[nH]c3ccccc23)CSSC[C@@H](C(=O)NCC(=O)O)NC(=O)[C@H](CO)NC1=O |  |  | patients, plasma | intravenous, 10 mg/kg, thrice weekly, median |  | Tmax | 8.4 min |
| C=CC(=O)Nc1cc(Nc2nccc(-c3c[nH]c4ccccc34)n2)c(OC)cc1N(C)CCN(C)C |  | storage stability | human dried blood spot | 10 d, on ice, LLOQ level |  | recovery | 68.9% |
| CC(=O)N([O-])CCCCCNC(=O)CCC(=O)N([O-])CCCCCNC(=O)CCC(=O)N([O-])CCCCCN.[89Zr+4] |  | radio-TLC | aqueous buffer | 1 d, pH 7.2, 37 °C, 89Zr-labelled complex, added: NiCl2 10-fold excess |  | intact complex | 97.2 ± 1.4% |
| COc1cccc(OC)c1-c1cc(C(=O)NC2(C(=O)O)C3CC4CC(C3)CC2C4)nn1-c1ccc(C(=O)N(C)CCOCCOCCN(C)C(=O)[C@H](CCCCNC(=O)[C@H](CC(C)C)NC(=O)C2OC2C(=O)O)NC(=O)CN2CCN(CC(=O)[O-])CCN(CC(=O)[O-])CCN(CC(=O)[O-])CC2)cc1C(C)C.[177Lu+3] (mixture of isomers) |  |  | mouse, HT-29 xenograft | 4 h post injection, biodistribution | reference: tumour over brain uptake | tumour-to-brain ratio | 26 |
| [123I]c1ccc2nc(-c3ccc(-n4ccnn4)nc3)cn2c1 |  |  | male Wistar rat, spleen | intravenous, 4 MBq, 14 h |  | tracer uptake | 0.007 %ID/g |
| CCn1nc(Cl)c2c1-c1cnc(N)c(c1)O[C@H](C)c1cc(F)ccc1-c1nn(C)cc1C2 |  |  | Balb/c nude mouse, female, plasma | 0.5 mg/kg, single dose, 1 h |  | free plasma concentration | 6.87 nM |
| CCC(CC)CNC(=N)NC(=N)NCCCCCCNC(=N)NC(=N)NCC(CC)CC |  | metabolic stability | dog, hepatocytes | 1 µM |  | hepatocyte CLint | 9.13 µL/min/10⁶ cells |
| CCCCN1C(=O)c2cccc3c(NCCCCCN4CCOCC4)ccc(c23)C1=O |  |  | ethyl acetate |  |  | molar extinction coefficient | 5380 M⁻¹ cm⁻¹ |
| Oc1ccc([C@@H]2Oc3ccc(O)cc3[C@@H]3CCC[C@@H]32)cc1 |  |  | mouse, plasma | oral, 10 mg/kg |  | AUC(all) | 1.2 µM·h |
| CCn1c(=O)c(-c2cc(NC(=O)Nc3ccccc3)c(F)cc2Br)cc2cnc(N)cc21 |  |  | human plasma | 4000 ng/mL, -20 °C, 3 cycles, high QC |  | freeze-thaw stability accuracy | -6.3% |
| Cc1ccc(OCC(=O)N(Cc2cccs2)c2ccn[nH]2)cc1 |  |  | pooled rabbit liver microsomes | 10 µM, 20 min | reference: time 0 | remaining compound | 1.16% |
| Nc1nc(-c2ccccc2)nc2[nH]nc(Nc3ccc(Cl)cc3)c12 |  |  | plasma | time not given, plasma protein binding |  | recovery | 61% |
| O=C(Nc1cnccc1-c1ccc([18F])cc1)c1ccnc(NC(=O)C2CC2)c1 |  | ex vivo gamma counting | GSK-3β transgenic mice, early-stage, brain stem | intravenous, 120 min |  | mean SUV | 0.05 |
| C=CC(=O)N1CCCC(n2c(=O)c3ncccc3n(Cc3ccc(Oc4ccccc4)cc3)c2=O)C1 (stereo not shown) |  |  | BALB/c mice, male, plasma | intraperitoneal, 200 mg/kg, 4 h |  | plasma concentration | 1280 ng/mL and 2640 ng/mL and 2990 ng/mL |
| COCC1CN(C2CCN(c3cc(OC)c(Nc4ncc(Br)c(Nc5ccc6c(c5P(C)(C)=O)OCCO6)n4)cc3C)CC2)C1 |  |  | EGFR-mutant NSCLC patients, plasma | oral, 150 mg multiple doses, geometric mean |  | Cmin | 509 ng/mL |

| SMILES | tested on | test | system | setting | how to read | measurement | result |
| --- | --- | --- | --- | --- | --- | --- | --- |
| COC1CN([C@H]2CC[C@H]([C@@]3(C)Oc4c(Cl)cc(C(=O)NCc5c(SC)cc(C)[nH]c5=O)c(C)c4O3)CC2)C1 |  | RNA-seq, measured: PTPRD mouse homolog | mouse, HT-1376 xenograft, whole blood | dose not given | reference: vehicle | log2 fold change | 0.373 |
| O=C1NC2(CC2)COc2ncc(F)cc2[C@H]2COCCN2c2ccn3ncc1c3n2 |  | bone marrow micronucleus test | NIH mice, male | oral, 200 mg/kg/day, 3 days |  | PCE/(PCE+NCE) ratio | 0.278 ± 0.163 |
| CCCC[C@H](OC(C)=O)c1ccccc1C(=O)O |  |  | Sprague-Dawley rats, both sexes, whole blood | intravenous, 20 mg/kg single dose |  | MRT(0-inf) | 174 ± 38.4 min |
| CNC(=O)C1CCCN(C(=O)C2CC3CCC2N3C(=O)[C@@H]2C[C@@H](O)CN2C(=O)NCc2cccc(Cl)c2F)C1 (mixture of isomers) |  |  | Sprague-Dawley rat, plasma | oral, 8 mg/kg |  | AUC(0-inf) | 8.47 ng·h/mL |
| CC(C(=O)O)n1nc(Cn2cc3cc(OCC[18F])c(Cl)cc3n2)c2ccccc2c1=O (racemic) |  |  | rat, liver | 2 h |  | tracer uptake | 0.45 %ID/g |
| CCN(CC)c1ccc2c(c1)O[B-]1(c3ccc(C)cc3)OC(=O)C(c3ccccc3)=N[N+]1=C2 (stereo not shown) |  |  | toluene |  |  | molar absorption coefficient | 59000 M⁻¹ cm⁻¹ |
| Cc1nn(-c2cccc(N)c2)c(=O)c2cnc(Nc3ccc(N4CCNCC4)cc3)nc12 | Muscle, skeletal receptor tyrosine-protein kinase (MUSK, Homo sapiens, UniProt O15146) | enzyme activity, inhibitor |  |  |  | IC50 | > 10 µM |
| O=C([O-])CN1CCN(CC(=O)[O-])CCN(CC(=O)NCC2CCC(C(=O)NC(Cc3ccc4ccccc4c3)C(=O)NCCCCC(NC(=O)NC(CCC(=O)O)C(=O)O)C(=O)O)CC2)CCN(CC(=O)[O-])CC1.[68Ga+3] (stereo not shown) |  | micro-PET/CT | mouse 22Rv1 xenograft, tumour | 2 h post-injection |  | mean tumour uptake | 5.77 ± 0.5 %ID/g |
| CC(C)(O)c1ncc([S@](N)(=O)=NC(=O)Nc2c3c(cc4c2CCC4)CCC3)s1 |  | measured: musculoskeletal-connective tissue disorders | healthy human volunteers | oral, 100 mg single dose, crystalline suspension |  | subjects with TEAEs | 17% |
| CCc1cnc(NC(=O)c2cc(S(=O)(=O)N3CCOCC3)ccc2N(C)C2CCCC2)s1 |  |  | mouse | 10 mg/kg, 3 doses |  | total bilirubin | 0.1 mg/dL |
| C=C(NC(=O)c1csc(-c2nc3c(cc2O)-c2nc(cs2)C(=O)NC(C(C)O)C(=O)NC(=C(C)OC)c2nc(cs2)C(=O)NC2c4nc(cs4)C(=O)NC(COC(=O)c4c5c6c(cccc6n4O)COC(=O)C(OC4CC(C)(O)C(N(C)C)C(C)O4)C2OC5)c2nc-3cs2)n1)C(N)=O (stereo not shown) |  |  | Sprague-Dawley rat, female, plasma | intravenous infusion, 6 mg/kg, multiple doses, day 7 |  | Cmax | 3970 ng/mL |
| CCCCN1C(=O)c2cccc3c(NCCCN4CCOCC4)ccc(c23)C1=O |  |  | MeCN |  |  | molar extinction coefficient | 5300 M⁻¹ cm⁻¹ |
| Cc1cc(-c2ccc(C(=O)[C@@H]3CCCC[C@H]3C(=O)Nc3cnn4c3C(=O)NCC4)cc2)[nH]n1 |  |  | human, urine | oral, 200 mg, 0-72 h | reference: dose | cumulative radioactivity recovery | 6.19% and 6.74% and 4.91% and 5.56% and 6.49% and 4.9% |
| CC(C)[C@H](NC(=O)[C@H](Cc1c[nH]c2ccccc12)NC(=O)[C@H](CCCNC(=N)N)NC(=O)[C@H](CCCNC(=N)N)NC(=O)[C@@H](NC(=O)[C@@H](NC(=O)[C@H](CCCNC(=N)N)NC(=O)[C@@H](NC(=O)[C@@H](NC(=O)[C@H](CCCNC(=N)N)NC(=O)[C@H](CCCNC(=N)N)NC(=O)[C@@H](NC(=O)[C@H](Cc1c[nH]c2ccccc12)NC(=O)[C@H](CCCNC(=N)N)NC(=O)[C@H](CCCNC(=N)N)NC(=O)[C@@H](NC(=O)[C@H](CCCNC(=N)N)NC(=O)[C@H](CCCNC(=N)N)NC(=O)[C@@H](NC(=O)[C@H](Cc1c[nH]c2ccccc12)NC(=O)[C@H](CCCNC(=N)N)NC(=O)[C@@H](N)CCCNC(=N)N)C(C)C)C(C)C)C(C)C)C(C)C)C(C)C)C(C)C)C(C)C)C(=O)N[C@@H](CCCNC(=N)N)C(=O)N[C@@H](CCCNC(=N)N)C(=O)O |  |  | CD1 mouse, urine | intravenous, 15 mg/kg, 16 h, [14C]-labelled compound |  | glucose | 82 mg/dL |
| CCCCN1C(=O)c2cccc3c(NCCCCCCCCN4CCOCC4)ccc(c23)C1=O |  |  | methanol |  |  | molar extinction coefficient | 11700 M⁻¹ cm⁻¹ |
| Cc1cc(C(=O)N[C@@H](CC(=O)NC(C)(C)C)C(=O)NCCNC(=O)c2cccc(-c3cc[nH]n3)c2)no1 |  |  | mouse, plasma | intravenous, 0.1 mg/kg |  | mean residence time | 0.3 h |
| O=C(Nc1cnccc1-c1ccc([18F])nc1)c1ccnc(NC(=O)C2CC2)c1 |  | ex vivo biodistribution, gamma counting | GSK-3β overexpressing transgenic mouse, early stage, cecum | intravenous, 120 min post-injection, added: tariquidar 15 mg/kg iv, at least 120 min before tracer |  | mean SUV | 2.46 |
| C=CC(=O)Nc1cc(Nc2nccc(-c3cn(C)c4ccccc34)n2)c(OC)cc1N(C)CCNC |  |  | human, dried blood spots | 270 ng/mL, 2 h, room temperature, high QC level |  | remaining compound | 103% |
| CCCCN1C(=O)c2cccc3c(NCCCCCCCCCCN4CCOCC4)ccc(c23)C1=O |  |  | chloroform |  |  | molar extinction coefficient | 14100 M⁻¹ cm⁻¹ |
| CCC(C(=O)Nc1ccc(C(N)=O)c(F)c1)n1cc(OC)c(-c2cc(Cl)ccc2-n2cc(C(F)(F)F)nn2)cc1=O (stereo not shown) |  |  | healthy male humans | 50 mg, added: omeprazole |  | drug-related adverse events | 0% |
| C=Cc1cccc([B-]23OC(=O)C(c4ccccc4)=N[N+]2=Cc2ccc(N(CC)CC)cc2O3)c1 (stereo not shown) |  |  | toluene |  |  | molar absorption coefficient | 52000 M⁻¹ cm⁻¹ |
